Measured values gathered from unrelated publications.
Each line is one published result; not all experiments were run side by side. pIC50: −log10 of the molar value. In brackets after ≈: the same amount, converted by molar mass.
UniProt Q9NR20, sequence (whole entry, looked up): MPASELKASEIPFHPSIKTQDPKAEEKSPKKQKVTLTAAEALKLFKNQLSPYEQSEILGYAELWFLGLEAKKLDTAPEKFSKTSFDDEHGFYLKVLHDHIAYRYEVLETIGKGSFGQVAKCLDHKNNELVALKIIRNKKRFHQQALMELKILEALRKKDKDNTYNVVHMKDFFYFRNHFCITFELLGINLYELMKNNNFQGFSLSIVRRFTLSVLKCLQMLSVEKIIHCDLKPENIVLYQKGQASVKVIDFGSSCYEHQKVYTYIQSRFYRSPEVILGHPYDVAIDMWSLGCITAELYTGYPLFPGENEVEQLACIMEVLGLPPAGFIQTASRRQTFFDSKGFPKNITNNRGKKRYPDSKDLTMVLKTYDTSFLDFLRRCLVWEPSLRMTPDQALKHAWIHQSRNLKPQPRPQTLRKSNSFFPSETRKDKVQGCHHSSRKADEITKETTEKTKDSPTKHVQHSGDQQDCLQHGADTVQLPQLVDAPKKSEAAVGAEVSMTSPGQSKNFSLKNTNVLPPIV
UniProt Q15759, sequence (whole entry, looked up): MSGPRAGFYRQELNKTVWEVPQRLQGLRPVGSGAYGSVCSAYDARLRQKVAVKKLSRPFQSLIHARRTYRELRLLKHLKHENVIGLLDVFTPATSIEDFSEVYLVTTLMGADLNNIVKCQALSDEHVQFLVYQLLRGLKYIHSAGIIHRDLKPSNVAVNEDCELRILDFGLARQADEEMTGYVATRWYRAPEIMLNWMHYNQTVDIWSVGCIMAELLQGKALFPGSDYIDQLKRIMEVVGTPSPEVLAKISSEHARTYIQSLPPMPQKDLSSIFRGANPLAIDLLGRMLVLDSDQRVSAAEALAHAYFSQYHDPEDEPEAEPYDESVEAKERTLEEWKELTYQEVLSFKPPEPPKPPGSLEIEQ
UniProt Q9H422, sequence (whole entry, looked up): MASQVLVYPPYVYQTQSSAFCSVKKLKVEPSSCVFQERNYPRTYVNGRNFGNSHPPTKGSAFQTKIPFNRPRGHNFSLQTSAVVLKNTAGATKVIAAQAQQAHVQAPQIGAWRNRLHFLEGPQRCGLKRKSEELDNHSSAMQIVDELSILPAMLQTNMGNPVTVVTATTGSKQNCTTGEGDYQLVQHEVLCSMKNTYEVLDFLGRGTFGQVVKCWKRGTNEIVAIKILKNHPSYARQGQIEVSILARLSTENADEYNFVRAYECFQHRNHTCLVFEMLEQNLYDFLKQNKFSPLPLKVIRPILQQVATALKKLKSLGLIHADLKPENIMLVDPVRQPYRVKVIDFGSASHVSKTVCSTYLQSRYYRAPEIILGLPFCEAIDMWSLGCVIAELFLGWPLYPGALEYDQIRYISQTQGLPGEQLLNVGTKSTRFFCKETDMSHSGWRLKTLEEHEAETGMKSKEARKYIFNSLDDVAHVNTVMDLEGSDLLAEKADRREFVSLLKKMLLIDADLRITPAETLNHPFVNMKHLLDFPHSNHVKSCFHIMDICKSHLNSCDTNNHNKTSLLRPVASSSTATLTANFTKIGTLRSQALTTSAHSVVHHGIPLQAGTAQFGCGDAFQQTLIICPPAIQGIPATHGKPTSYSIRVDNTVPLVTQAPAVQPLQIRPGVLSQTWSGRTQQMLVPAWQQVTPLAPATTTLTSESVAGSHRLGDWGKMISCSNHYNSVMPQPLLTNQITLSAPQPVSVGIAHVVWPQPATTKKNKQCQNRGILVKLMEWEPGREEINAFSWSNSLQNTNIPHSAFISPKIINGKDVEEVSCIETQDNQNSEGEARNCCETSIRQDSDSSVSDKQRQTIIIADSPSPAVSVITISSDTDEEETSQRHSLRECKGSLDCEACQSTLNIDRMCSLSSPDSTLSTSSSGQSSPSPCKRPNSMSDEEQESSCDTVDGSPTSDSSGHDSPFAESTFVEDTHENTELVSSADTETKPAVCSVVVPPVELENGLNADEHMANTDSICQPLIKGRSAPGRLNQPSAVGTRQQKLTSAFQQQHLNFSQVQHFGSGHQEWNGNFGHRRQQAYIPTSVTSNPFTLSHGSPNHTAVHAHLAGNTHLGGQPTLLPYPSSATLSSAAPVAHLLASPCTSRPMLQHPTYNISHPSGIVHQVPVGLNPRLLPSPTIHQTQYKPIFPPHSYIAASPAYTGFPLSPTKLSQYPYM
UniProt Q9C098, sequence (whole entry, looked up): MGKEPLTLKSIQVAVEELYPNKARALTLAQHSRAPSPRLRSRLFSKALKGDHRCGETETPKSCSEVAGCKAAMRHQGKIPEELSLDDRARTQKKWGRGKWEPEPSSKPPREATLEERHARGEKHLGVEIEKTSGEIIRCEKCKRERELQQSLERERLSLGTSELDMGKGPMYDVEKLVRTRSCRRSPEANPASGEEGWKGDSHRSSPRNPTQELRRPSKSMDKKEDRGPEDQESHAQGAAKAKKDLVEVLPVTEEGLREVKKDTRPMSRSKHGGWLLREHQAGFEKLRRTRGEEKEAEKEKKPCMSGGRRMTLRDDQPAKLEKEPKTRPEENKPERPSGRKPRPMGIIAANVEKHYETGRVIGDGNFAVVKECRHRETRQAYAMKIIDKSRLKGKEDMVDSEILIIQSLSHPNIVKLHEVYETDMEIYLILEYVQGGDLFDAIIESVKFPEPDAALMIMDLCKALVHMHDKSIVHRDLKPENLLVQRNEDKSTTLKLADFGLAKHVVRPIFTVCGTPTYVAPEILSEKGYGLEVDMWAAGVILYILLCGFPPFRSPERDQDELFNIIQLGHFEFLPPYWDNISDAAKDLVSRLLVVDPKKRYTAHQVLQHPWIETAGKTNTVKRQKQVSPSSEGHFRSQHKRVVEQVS
UniProt Q13554, sequence (whole entry, looked up): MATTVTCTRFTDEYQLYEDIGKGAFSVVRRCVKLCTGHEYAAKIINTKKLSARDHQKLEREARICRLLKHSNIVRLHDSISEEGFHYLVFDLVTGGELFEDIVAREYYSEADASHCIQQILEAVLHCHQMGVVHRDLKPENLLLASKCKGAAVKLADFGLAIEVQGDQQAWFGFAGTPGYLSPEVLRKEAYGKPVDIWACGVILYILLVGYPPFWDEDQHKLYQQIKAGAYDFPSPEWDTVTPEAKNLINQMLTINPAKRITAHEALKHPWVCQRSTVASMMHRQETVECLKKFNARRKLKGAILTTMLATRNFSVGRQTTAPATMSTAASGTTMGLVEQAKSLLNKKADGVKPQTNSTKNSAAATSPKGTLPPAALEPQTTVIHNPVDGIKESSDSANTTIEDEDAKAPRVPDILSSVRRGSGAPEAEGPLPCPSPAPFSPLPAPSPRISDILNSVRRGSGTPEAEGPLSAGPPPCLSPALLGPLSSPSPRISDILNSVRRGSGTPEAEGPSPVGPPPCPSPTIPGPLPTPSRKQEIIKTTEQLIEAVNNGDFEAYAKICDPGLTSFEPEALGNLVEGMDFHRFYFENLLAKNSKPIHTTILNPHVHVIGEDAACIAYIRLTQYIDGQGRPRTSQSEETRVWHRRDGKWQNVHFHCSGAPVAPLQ
UniProt Q8IWQ3, sequence (whole entry, looked up): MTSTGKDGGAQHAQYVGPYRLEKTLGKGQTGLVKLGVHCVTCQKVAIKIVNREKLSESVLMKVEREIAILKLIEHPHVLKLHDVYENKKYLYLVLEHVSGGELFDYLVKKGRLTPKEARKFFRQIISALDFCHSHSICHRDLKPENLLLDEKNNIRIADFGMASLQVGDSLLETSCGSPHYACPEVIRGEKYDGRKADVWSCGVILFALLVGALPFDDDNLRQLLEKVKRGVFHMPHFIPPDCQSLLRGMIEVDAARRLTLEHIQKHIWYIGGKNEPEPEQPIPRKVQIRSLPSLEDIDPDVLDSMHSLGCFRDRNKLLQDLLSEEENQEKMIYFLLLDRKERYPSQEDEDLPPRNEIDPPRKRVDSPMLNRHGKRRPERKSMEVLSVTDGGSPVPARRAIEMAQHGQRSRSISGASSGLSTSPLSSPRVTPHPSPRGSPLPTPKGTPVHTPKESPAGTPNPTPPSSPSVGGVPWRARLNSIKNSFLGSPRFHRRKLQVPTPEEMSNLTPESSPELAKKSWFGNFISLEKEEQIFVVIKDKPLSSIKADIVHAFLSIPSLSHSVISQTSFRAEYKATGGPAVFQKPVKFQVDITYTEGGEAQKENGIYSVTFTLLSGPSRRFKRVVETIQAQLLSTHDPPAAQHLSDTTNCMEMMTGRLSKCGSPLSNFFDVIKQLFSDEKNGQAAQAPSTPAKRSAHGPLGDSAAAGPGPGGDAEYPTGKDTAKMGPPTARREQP

Compound	tested on	assay	test system	conditions	quantity	value
CCN(O)N=Nc1ccc(S(=O)(=O)Nc2cc(C)on2)cc1		ABTS scavenging		180 µg/mL	inhibition	24.8%
Nc1ccn([C@@H]2O[C@H](CO)[C@@H](O)C2(F)F)c(=O)n1	MCF7	cell growth or viability, MTT		0.15625 µg/mL, 48 h	viability	90%
CCN(O)N=Nc1ccc(S(=O)(=O)Nc2nccs2)cc1		ABTS scavenging		300 µg/mL	inhibition	57.2%
COc1cccc(-c2n[nH]c(SCc3ccccn3)n2)c1OC			male Sprague-Dawley rat, plasma	oral, 10 mg/kg, 4 h, single dose	concentration	289 ng/mL
CN(Cc1ccc(C2(C(F)(F)F)CC2)cc1)Cc1cccc2ccccc12	Trichophyton rubrum	microbial growth, disc diffusion	ATCC28188	0.004 µg/mL, 6 days	inhibition zone	22.8 mm
Cc1noc(NS(=O)(=O)c2ccc(N=NN(O)c3ccccc3)cc2)c1C		ABTS scavenging		60 µg/mL	inhibition	44.4%
CN(Cc1ccc(C(C)(C)C)cc1)Cc1cccc2ccccc12	Trichophyton rubrum	microbial killing, broth dilution	ATCC28188	6 days	MFC	250 µg/mL (≈ 787 µM)
Cc1cc(NS(=O)(=O)c2ccc(N=NN(C)O)cc2)no1		ABTS scavenging		240 µg/mL	inhibition	49.8%
CC(=O)Nc1ccc(Oc2nnc(-c3ccc(Cl)cc3)c3ccccc23)cc1	MCF7	cell growth or viability, MTT		0.312 µM	cell death	84.4%
COc1ccc(C(=O)C#Cc2ccc(F)c(F)c2)cc1	Pseudomonas aeruginosa	microbial growth, absorbance		10 µM, 24 h	activity vs control	99%
O=c1nc(N2CCN(CC3CCCCC3)CC2)sc2c([N+](=O)[O-])cc(C(F)(F)F)cc12			CD-1 mouse, lung	oral, 100 mg/kg, 1 h	concentration	383 ng/mL
Cc1ccc(C(=O)C#Cc2ccc(F)c(F)c2)cc1	Pseudomonas aeruginosa	microbial growth, absorbance		10 µM, 24 h	activity vs control	100%
Cc1ccc(N(O)N=Nc2ccc(S(=O)(=O)Nc3onc(C)c3C)cc2)cc1		ABTS scavenging		300 µg/mL	inhibition	99.3%
Clc1ccccc1/C=N/N=C/c1ccccc1Cl		DPPH scavenging			pIC50	2.70
S=C(Nc1ccccc1)Nc1ccc(Oc2nnc(-c3ccc(Cl)cc3)c3ccccc23)cc1	MCF7	cell growth or viability, MTT		2.5 µM, 24 h	viability	3.63%
CCCCC(=O)Nc1ccc(-c2ccc3ncn(CCC)c(=O)c3c2)cn1	CAMK2B (Homo sapiens, UniProt Q13554)	binding, competition with immobilised ligand		0.5 µM	remaining binding	100%
O=C(C=Cc1ccccc1)Nc1ccc(Oc2nnc(-c3ccc(Cl)cc3)c3ccccc23)cc1	MCF7	cell growth or viability, MTT		5 µM, 24 h	viability	8.37%
CCCN(O)N=Nc1ccc(S(=O)(=O)Nc2cc(C)on2)cc1		ABTS scavenging		60 µg/mL	inhibition	15.1%
C=CC(=O)N1CCC(COCC(=O)N2CCN(c3nc(-c4cnc(N)nc4C(F)F)nc(N4CCOC[C@@H]4C)n3)CC2)CC1	DCLK3 (Homo sapiens, UniProt Q9C098)	binding, competition with immobilised ligand		1 µM	remaining binding	100%
CC(=NNC(=O)c1ccncc1)c1ccc(Nc2nnc(-c3ccc(Cl)cc3)c3ccccc23)cc1	MCF7	cell growth or viability, MTT		78 nM	cell death	16.9%
Cc1cc([C@@H](C)Nc2ccccc2C(=O)O)c2nc(N3CCC(F)(F)CC3)c(C#N)c(=O)n2c1	MAPK11 (Homo sapiens, UniProt Q15759)	binding, competition with immobilised ligand		10 µM	remaining binding	100%
COc1cc(-c2cncc3c2CN(C)Cc2cc(N4CCNCC4)ccc2-3)cc(OC)c1OC	HIPK3 (Homo sapiens, UniProt Q9H422)	enzyme activity, inhibitor		1 µM	remaining activity	103%
CNc1ncc2c(/C=C/C(=O)N3CCC(OC)CC3)nn(Cc3cccc(C(F)(F)F)c3)c2n1	DYRK4 (Homo sapiens, UniProt Q9NR20)	enzyme activity, inhibitor, radiometric		1 µM	remaining activity	112%
CC(=NNC(=O)c1cccnc1)c1ccc(Nc2nnc(-c3ccc(Cl)cc3)c3ccccc23)cc1	MCF7	cell growth or viability, MTT		5 µM	cell death	95.2%
Fc1cccc(/C=N/N=C/c2cccc(F)c2)c1		DPPH scavenging			pIC50	2.78
O=C(Nc1ccccc1)Nc1ccc(Oc2nnc(-c3ccc(Cl)cc3)c3ccccc23)cc1	MCF7	cell growth or viability, MTT		0.312 µM	cell death	88.7%
C1=C/COCc2cc(ccc2OCCN2CCCC2)Nc2nccc(n2)-c2cccc(c2)COC/1	BRSK2 (Homo sapiens, UniProt Q8IWQ3)	binding		0.1 µM	remaining binding	100%

Excerpt of the above:
Compound	tested on	assay	test system	conditions	quantity	value
C1=C/COCc2cc(ccc2OCCN2CCCC2)Nc2nccc(n2)-c2cccc(c2)COC/1	BRSK2 (Homo sapiens, UniProt Q8IWQ3)	binding		0.1 µM	remaining binding	100%
COc1cccc(-c2n[nH]c(SCc3ccccn3)n2)c1OC			male Sprague-Dawley rat, plasma	oral, 10 mg/kg, 4 h, single dose	concentration	289 ng/mL
CC(=NNC(=O)c1ccncc1)c1ccc(Nc2nnc(-c3ccc(Cl)cc3)c3ccccc23)cc1	MCF7	cell growth or viability, MTT		78 nM	cell death	16.9%
CC(=O)Nc1ccc(Oc2nnc(-c3ccc(Cl)cc3)c3ccccc23)cc1	MCF7	cell growth or viability, MTT		0.312 µM	cell death	84.4%
